Assay results of several laboratories.
A part holds a random share of what one study measured. Positions count from the first letter of the parent shown.

Block 1 — target: CCNA1, cyclin fold, Cln2 fusion (human); method: yeast growth competition, sequencing; medium: yeast; setting: weak parent motif; reference: not given; reading: higher = stronger binding; measurement: normalised enrichment score
Starting sequence: WEE1 docking peptide (human); HKTFRKLRLFDTP; partner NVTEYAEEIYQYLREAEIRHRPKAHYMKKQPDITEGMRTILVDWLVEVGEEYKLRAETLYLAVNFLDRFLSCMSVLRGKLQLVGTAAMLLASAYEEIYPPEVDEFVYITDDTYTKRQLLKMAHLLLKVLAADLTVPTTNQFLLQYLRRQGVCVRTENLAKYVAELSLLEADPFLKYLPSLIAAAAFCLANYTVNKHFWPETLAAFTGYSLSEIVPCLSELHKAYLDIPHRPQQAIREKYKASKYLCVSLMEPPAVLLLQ
Variant = HKTFRKLRLFDFP [T12F]; result = 0.222
Variant = HKTFRKERLFDTP [L7E]; result = 0.449
Variant = HKTFRKLRLFDTC [P13C]; result = 0.382
Variant = HKTFRKLRLFDTE [P13E]; result = -0.108
Variant = HKTFRKLDLFDTP [R8D]; result = 0.218
Variant = HKTFRKLRLFDTK [P13K]; result = 0.28
Variant = HKTFRKLRLFDTH [P13H]; result = -0.146
Variant = HKTFRKLRGFDTP [L9G]; result = 0.118
Variant = HKTFRKLRLFDTT [P13T]; result = 0.279
Variant = HLTFRKLRLFDTP [K2L]; result = 0.321
Variant = SKTFRKLRLFDTP [H1S]; result = 0.856
Variant = WKTFRKLRLFDTP [H1W]; result = 0.296
Variant = HKTFRKLRLFDKP [T12K]; result = 0.258
Variant = HKTFRKLALFDTP [R8A]; result = 0.248
Variant = HKTFRKLRPFDTP [L9P]; result = 0.158
Variant = HKTFRKLRLFDMP [T12M]; result = 0.608
Variant = HKTFRKLRHFDTP [L9H]; result = 0.066
Variant = HKTFRALRLFDTP [K6A]; result = 0.0982
Variant = CKTFRKLRLFDTP [H1C]; result = 0.536
Variant = HYTFRKLRLFDTP [K2Y]; result = 0.136
Variant = HKTFRKYRLFDTP [L7Y]; result = 0.418
Variant = HKTFRKLRLFDTW [P13W]; result = 0.17
Variant = HKTFRKLRIFDTP [L9I]; result = 0.353
Variant = HKTFSKLRLFDTP [R5S]; result = 0.12
Variant = HKTFRKLRLFDYP [T12Y]; result = -0.0142

Block 2 — method: RNA Bind-n-Seq; molecule type: RNA; medium: in vitro; tested at: 365 nM; reference: no-protein control; reading: higher = stronger binding; measurement: RBNS enrichment (R)
Target: RNA binding protein fox-1 homolog 2, RRM domain, GST-SBP tag (RBFOX2, Homo sapiens, UniProt O43251-10, residues 100-194)
Setting: natural RNA segment, single round, ends assumed
Residues (chain): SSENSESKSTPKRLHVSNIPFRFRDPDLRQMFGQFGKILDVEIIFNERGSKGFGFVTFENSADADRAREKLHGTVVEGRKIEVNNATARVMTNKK
Sequence = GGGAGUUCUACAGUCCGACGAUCGCAGCACCUUGCCGGCCAGGAGGAGCUGAUGCUGACGAUCUCCCCAACAUCUGAAGGCUUAAAGAACAUUGUCGUUCUUCAGCCCUCCUUGCUUCUCUCAAUACAAUAAGUGGAAUUCUCGGGUGCCAA; result = 0.931
Sequence = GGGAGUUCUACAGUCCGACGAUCGUUUUUGUUUUUGUUUUUUUCUGGAUAAGGAAAACAGAGAACAACAAUAGAUACCGCUGAAGGAUCCUUGGAGUCCAUCAUCCAUAUCUCAGUGGUCAUUCUUCUGCCUUUGGAAUUCUCGGGUGCCAA; result = 0.292
Sequence = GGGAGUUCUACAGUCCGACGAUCAAAAGCCUGCUCCUUACUGCACUCUGGACAAGGCCCUGGUCUGUAUAGUUUGGCUUCCUCUGUUAAGUCAUUCUACAAGGUGACUUGCCAUUUGAACUUUCGUAAGAGACUGGAAUUCUCGGGUGCCAA; result = 0.433
Sequence = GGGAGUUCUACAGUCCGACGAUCCCUCCAUCCUUUCUUCUCUGGUCCCCAUCCCUGUCUCUCCCUUUCACCCUUGCCCUCCAGUCCUCUACCUCUGGCCUGCCCCUAUUUCUGAAAGCUUCUUCCAGUCCCUGUGGAAUUCUCGGGUGCCAA; result = 1.12
Sequence = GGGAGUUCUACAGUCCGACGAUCUACCCACUUUGGAACCCACUUUCCCCAGUCUCUAGGUCCUGAUGCCUAGUGUGAUGAAGACCUUGCCCUCUUCAUUUCCCUCAACUCCCUACUCCUUUUAUGUAUGGAUGUGGAAUUCUCGGGUGCCAA; result = 0.357
Sequence = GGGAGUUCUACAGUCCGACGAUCCUGGGUCUCCUCAACUCUGCCCCAGCUUCUCGCAGCACAGGGCCAGGCACCAAGUGCGUAGGCGACGGUAGAUGUUUGCUGAUUGAAUUGAGUCCCCACGGCAUCUCUGGUGGAAUUCUCGGGUGCCAA; result = 1.11
Sequence = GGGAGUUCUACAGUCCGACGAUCUUCGCCCUGCCCUGCCCACCGGGGCUGAAAAUUCCUGAGGAAGAUGGUUACACCAUCACCCCCAACACCCUCAAGACCCUGGUGCUGGUAGGCUGUUUCACCGUCUUCUGUGGAAUUCUCGGGUGCCAA; result = 0.265
Sequence = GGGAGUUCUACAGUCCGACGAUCACCCCAUCCCUUCUCUCGCGCGCCUAUUGAUUUGUUUCUGAGGAGAGUACACCGUUCACUAUUGUAGAGUAACCCCUGUGACUCAAUAUUACCAUAGUGCGAUGUCGUUUUGGAAUUCUCGGGUGCCAA; result = 0.427
Sequence = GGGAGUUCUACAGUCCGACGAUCGGGGAUUAGGCUCUUUUAGGUAACUGGCUUUCCUGCUGGUCCGUGCGGGAAAUUCAGUCUUGAUUUAACCUUAAUUUUACAGCCCUUGGCUUGUGUUAUCGGACAUUCUAUGGAAUUCUCGGGUGCCAA; result = 0.576
Sequence = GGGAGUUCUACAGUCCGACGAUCAUGGAUAACUCUGUGAACAGUCUUGACUUUUUGUAUCAUGAGACAGAGUGCCUAAGAGAAACCCUUGCACCUGGGAGCGCUGCUUGGCUCUAUCUCUACAACAUUUAAUGUGGAAUUCUCGGGUGCCAA; result = 0.77
Sequence = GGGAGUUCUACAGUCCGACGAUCUGGGAGCUGUUCUAAGAAAGGGACCUCCCUCUCCUUUUUAAAUUGGUGAGCCACAAAUUACAUUGAUUAUGUUGAACUUAUUAUUCUUCAAAGAAAAUAUUUUAAACCUGUGGAAUUCUCGGGUGCCAA; result = 0.392
Sequence = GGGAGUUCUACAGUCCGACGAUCUCCAAAUCCAGCCCUUUUCGUUCUCUUAAUGAUGAAUCACCCAAAGACCUGGCUUUCAUGCUUCCUUAGACACGGCCUCCCUCGACUUACUUGCCUUGAAGAAGAAAGGCUGGAAUUCUCGGGUGCCAA; result = 0.604

Block 3 — method: protein-binding microarray; molecule type: double-stranded DNA, one strand shown; medium: in vitro; tested at: 2540 nM top; setting: 60-bp whole probe; added: salmon DNA 0.4 mg/ml; reference: random background probes; reading: higher = stronger binding; measurement: fitted relative affinity; shared flanks, not repeated: GCCTAGCAC … GTCTTGATTCGCTTGACGCTGCTG
Target: Interferon regulatory factor 3, full length, phosphomimetic (IRF3, Homo sapiens, UniProt Q14653, residues 1-427, S386D/S396D/S398D/S402D/T404D/S405D)
Chain of UniProt Q14653 (whole entry, unmodified, looked up): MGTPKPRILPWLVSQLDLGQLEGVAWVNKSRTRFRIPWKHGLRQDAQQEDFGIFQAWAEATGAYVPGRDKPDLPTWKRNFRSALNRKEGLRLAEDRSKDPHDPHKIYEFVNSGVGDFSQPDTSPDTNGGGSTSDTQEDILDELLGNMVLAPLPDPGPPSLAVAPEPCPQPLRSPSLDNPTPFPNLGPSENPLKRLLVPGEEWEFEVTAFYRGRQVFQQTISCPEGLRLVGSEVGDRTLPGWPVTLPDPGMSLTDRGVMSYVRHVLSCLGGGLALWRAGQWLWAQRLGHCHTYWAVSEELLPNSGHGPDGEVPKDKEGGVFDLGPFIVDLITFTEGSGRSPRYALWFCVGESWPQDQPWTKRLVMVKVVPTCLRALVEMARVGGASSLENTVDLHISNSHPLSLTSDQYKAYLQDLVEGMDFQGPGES
Sequence = TTAGGTTTCGGGTTTCGATTAGTGCTA; result = 5.7 z-score
Sequence = GACGCTTTCCTTCTCCTGACGTGCTAG; result = 6.99 z-score
Sequence = GACGGTACCGACTATCGGGACGTGCTA; result = 1.06 z-score
Sequence = TCCTCTTTCACTGGTCCTCATGTGCTA; result = 1.72 z-score
Sequence = CTCATGTTACATTTATATCTGTGCTAG; result = 1.24 z-score
Sequence = TTAGATCTCAGACTGGATCAGTGCTAG; result = 0.0433 z-score
Sequence = GATATTATATCTGTGTTATTGTGCTAG; result = 0.471 z-score
Sequence = GACGCTATCGGGTTTCGAGACGTGCTA; result = 0.826 z-score
Sequence = TTGCAGATGACGAAACTGAAGTGCTAG; result = 0.245 z-score
Sequence = GACGGACTGGACACTGGGGAGGTGCTA; result = -0.575 z-score
Sequence = CTCTACTTGTGTCTAGAGATGTGCTAG; result = -0.0418 z-score
Sequence = GACGATTTCTGGTATCGAGACGTGCTA; result = 1.04 z-score
Sequence = GACGGTTTCGGACTCGGGACGTGCTAG; result = 6.28 z-score
Sequence = GACGGTTTCCTTTGCCTGACGTGCTAG; result = 5.48 z-score
Sequence = TTAGGAGTGCTTATCCTTTAGTGCTAG; result = -0.169 z-score
Sequence = GACGATCTCAGTCTCGCGACGTGCTAG; result = 0.659 z-score
Sequence = GACGTTATCAGTATCGAGACGTGCTAG; result = 1.54 z-score
Sequence = GACGGACTGGTACTGGGGACGTGCTAG; result = -0.498 z-score
Sequence = GACGGTTTCCCTTTCCTGACGTGCTAG; result = 9.5 z-score
Sequence = CCTCATCTTCCTCTGCCACAGTGCTAG; result = 1.22 z-score
Sequence = TTAGATCTCAGTTTAGATTAGTGCTAG; result = 0.954 z-score
Sequence = TTAGGTTTCGGTATCGGTGAGTGCTAG; result = 8.56 z-score

Block 4 — method: universal PBM; molecule type: double-stranded DNA, one strand shown; medium: in vitro; tested at: 600 nM; reading: higher = stronger binding; measurement: E-score
Target: Sal-like protein 4, full length isoform A (SALL4, Homo sapiens, UniProt Q9UJQ4, residues 1-1053)
Chain of UniProt Q9UJQ4 (whole entry, looked up): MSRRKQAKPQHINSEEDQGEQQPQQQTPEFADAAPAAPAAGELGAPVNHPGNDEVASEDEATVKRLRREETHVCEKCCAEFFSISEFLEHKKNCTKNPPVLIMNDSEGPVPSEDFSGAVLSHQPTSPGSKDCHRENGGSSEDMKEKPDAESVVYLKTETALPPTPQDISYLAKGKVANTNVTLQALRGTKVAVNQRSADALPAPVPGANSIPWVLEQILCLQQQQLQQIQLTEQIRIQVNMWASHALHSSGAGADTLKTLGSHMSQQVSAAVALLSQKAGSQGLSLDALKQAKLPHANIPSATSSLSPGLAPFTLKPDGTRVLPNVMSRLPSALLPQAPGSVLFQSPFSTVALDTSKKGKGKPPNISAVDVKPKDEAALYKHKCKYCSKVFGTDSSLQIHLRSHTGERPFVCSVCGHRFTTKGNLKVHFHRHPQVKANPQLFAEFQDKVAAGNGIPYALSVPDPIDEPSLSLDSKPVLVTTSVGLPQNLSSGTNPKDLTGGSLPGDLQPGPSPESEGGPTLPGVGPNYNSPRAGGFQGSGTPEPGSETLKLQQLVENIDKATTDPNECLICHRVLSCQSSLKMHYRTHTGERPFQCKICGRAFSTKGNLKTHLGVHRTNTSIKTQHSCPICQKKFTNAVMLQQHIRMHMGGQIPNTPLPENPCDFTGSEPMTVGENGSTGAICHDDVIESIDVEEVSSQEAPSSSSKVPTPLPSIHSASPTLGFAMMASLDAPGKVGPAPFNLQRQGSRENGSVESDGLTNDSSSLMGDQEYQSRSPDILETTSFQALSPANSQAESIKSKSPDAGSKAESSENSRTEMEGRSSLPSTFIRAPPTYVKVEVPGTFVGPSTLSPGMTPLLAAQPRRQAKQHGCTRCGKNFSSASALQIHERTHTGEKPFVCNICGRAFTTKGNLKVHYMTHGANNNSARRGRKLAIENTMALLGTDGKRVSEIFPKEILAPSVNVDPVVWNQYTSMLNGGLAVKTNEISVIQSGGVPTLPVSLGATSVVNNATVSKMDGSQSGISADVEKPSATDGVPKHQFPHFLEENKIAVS
Setting: 8-mer, flanks averaged, mean of replicates
Sequence = AAACTACT; result = 0.201
Sequence = TACACTGA; result = 0.143
Sequence = AGAGCCGA; result = -0.0541
Sequence = GCAGCCCC; result = -0.354
Sequence = AATCGCCG; result = -0.249
Sequence = AAGCGTGC; result = -0.142
Sequence = ACGCGGAC; result = -0.201
Sequence = ACGACTAT; result = 0.189
Sequence = AACTGTCT; result = -0.142
Sequence = CACTTAAC; result = 0.0384
Sequence = CCTTTTCG; result = 0.105
Sequence = GACAACAA; result = 0.134
Sequence = ATAAATTA; result = 0.429
Sequence = AGCCAATC; result = -0.045
Sequence = CAACCAGG; result = -0.19
Sequence = CGCCCAAA; result = -0.0766
Sequence = TACACCCA; result = 0.0241
Sequence = ATCGCGCA; result = -0.0852
Sequence = AGTCTAAG; result = 0.147
Sequence = GCCGTGAC; result = -0.0443
Sequence = ACATCTTG; result = 0.07
Sequence = ACAAAGTC; result = -0.098
